Results of several laboratories.
Each numbered part is a random draw from the data of one study; scales do not carry over between parts. “And” joins repeats or separate records; there may be more than shown.

Series 1
Target: Serine/threonine-protein kinase 33 (STK33, Homo sapiens, UniProt Q9BYT3)
UniProt Q9BYT3, sequence (whole entry, looked up): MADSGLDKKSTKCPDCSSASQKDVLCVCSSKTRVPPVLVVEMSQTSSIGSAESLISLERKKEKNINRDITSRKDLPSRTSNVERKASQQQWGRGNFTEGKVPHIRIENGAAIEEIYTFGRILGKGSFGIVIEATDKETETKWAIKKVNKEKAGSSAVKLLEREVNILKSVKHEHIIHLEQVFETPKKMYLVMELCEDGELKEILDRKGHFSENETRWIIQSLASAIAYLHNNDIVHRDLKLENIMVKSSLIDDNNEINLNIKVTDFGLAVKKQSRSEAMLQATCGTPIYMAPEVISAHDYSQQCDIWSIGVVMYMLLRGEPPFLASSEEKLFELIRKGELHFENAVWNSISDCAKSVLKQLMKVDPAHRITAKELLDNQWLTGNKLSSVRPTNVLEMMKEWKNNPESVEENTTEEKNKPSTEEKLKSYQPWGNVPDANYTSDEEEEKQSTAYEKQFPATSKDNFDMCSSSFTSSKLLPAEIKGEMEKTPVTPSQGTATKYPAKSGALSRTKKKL
Effect on: enzyme activity
Action: inhibitor
Method: radiometric
Concentration: 0.5 µM
| Structure (SMILES) | remaining activity [%] |
| --- | --- |
| COc1cccc(-c2cc(=O)c3ccccc3o2)c1N | 98.2 |
| O=C1Nc2ccc(Br)cc2/C1=C/c1cc2c([nH]1)CCCC2 | 77.3 |
| O=C1Cc2c([nH]c3ccc(Br)cc23)-c2ccccc2N1 | 103 |
| COc1ccc2c(c1)c(C1=C(c3c[nH]c4ccccc34)C(=O)NC1=O)cn2CCCN(C)C | 56.2 |

Series 2
Cell line: mouse MPNST tumor cells
Method: high-content nuclear imaging
Item: cell number
Concentration: 10 µM
Time: 12 h
Notes: mean of 2 replicates
Relative to: plate mean
Reading: higher = more cells
| SMILES | nuclei count |
| --- | --- |
| Oc1ccc2c3c1O[C@H]1c4[nH]c5ccccc5c4C[C@@]4(O)[C@@H](C2)N(CC2CC2)CC[C@]314 | 1.17 z-score |
| CCCC(C)(COC(N)=O)COC(=O)NC(C)C (centres unmarked) | 1.11 z-score |
| O=C(Nc1ccccc1)C(=O)c1cn(Cc2ccccc2)c2ccccc12 | -0.898 z-score |
| Cc1sc2c(c1C)C(c1ccc(Cl)cc1)=N[C@H](CC(=O)OC(C)(C)C)c1nnc(C)n1-2 | -0.0248 z-score |

Series 3
SMILES: CC(C)S(=O)(=O)c1cc2c(Nc3ccc4sc(C5CCCC5)nc4c3)ccnc2cc1OCCO
| cell line | effect on | method | concentration | with | viability |
| --- | --- | --- | --- | --- | --- |
| L929 | necroptosis protection | CCK-8 | 1.25 µM | TNF-α plus zVAD | 103% |
| L929 | necroptosis protection | CCK-8 | 0.014 µM | TNF-α plus zVAD | 28.2% |
| L929 RIPK3 knockout |  |  | 1.563 µM |  | 98% and 97.5% and 90.7% and 92.6% and 100% |
| L929 |  | CCK-8 | 6.25 µM |  | 90.8% and 93.7% and 97% and 85.9% |
| L929 |  | CCK-8 | 6.25 µM | zVAD | 90.1% and 92.5% and 97.6% and 96.4% and 88.7% |
| L929 |  | CCK-8 | 1.563 µM |  | 100% and 98.6% and 95.9% |
| L929 RIPK3 knockout |  |  | 100 µM |  | 11.8% and 18.2% and 11.3% and 11.1% |
| L929 RIPK3 knockout |  |  | 25 µM |  | 71.6% and 71.8% and 75.3% and 73.4% |
| L929 |  | CCK-8 | 25 µM | zVAD | 78.3% and 60.2% and 61.5% and 60.3% and 59.4% |
| L929 RIPK3 knockout |  |  | 12.5 µM |  | 81.4% and 84.5% and 88.9% and 84.6% and 83.6% |
| L929 | necroptosis protection | CCK-8 | 5 µM | TNF-α plus zVAD | 102% |
| L929 RIPK3 knockout |  |  | 25 µM | zVAD | 68.7% and 69.4% and 73.3% and 73.1% and 75% |

Series 4
Cell line: HaCaT
Concentration: 100 µM
Time: 18 h
| SMILES | viability |
| --- | --- |
| C[C@]12CC[C@H]3[C@@H](CCC4=CC(=O)CC[C@@]43C)[C@@H]1CC[C@@H]2OC(=O)CCc1ccccc1 | 82.2% |
| Cl[C@H]1[C@H](Cl)[C@@H](Cl)[C@@H](Cl)[C@H](Cl)[C@H]1Cl | 22% |
| CN1C(=O)COc2c(C(=O)NC3CN4CCC3CC4)cc(Cl)cc21 (centres unmarked) | 99.4% |

Series 5
Organism: Sarcocystis neurona
Effect on: parasite growth
Concentration: 10 µM
Time: 96 h
Notes: first screen
Relative to: untreated
| Structure (SMILES) | log2 fold change |
| --- | --- |
| O=c1c2ccccc2[se]n1-c1ccccc1 | 0.12 |
| CC[C@]1(O)CC[C@H]2[C@@H]3CCC4=CCCC[C@@H]4[C@H]3CC[C@@]21C | 0.33 |
| O=C(O)CCCc1ccc(N(CCCl)CCCl)cc1 | -0.39 |

Excerpt of the above (series 1):
| Structure (SMILES) | remaining activity [%] |
| --- | --- |
| COc1cccc(-c2cc(=O)c3ccccc3o2)c1N | 98.2 |
